Results of several laboratories.
A part holds a random share of what one study measured.
Chain of UniProt P00519 (whole entry, unmodified, looked up): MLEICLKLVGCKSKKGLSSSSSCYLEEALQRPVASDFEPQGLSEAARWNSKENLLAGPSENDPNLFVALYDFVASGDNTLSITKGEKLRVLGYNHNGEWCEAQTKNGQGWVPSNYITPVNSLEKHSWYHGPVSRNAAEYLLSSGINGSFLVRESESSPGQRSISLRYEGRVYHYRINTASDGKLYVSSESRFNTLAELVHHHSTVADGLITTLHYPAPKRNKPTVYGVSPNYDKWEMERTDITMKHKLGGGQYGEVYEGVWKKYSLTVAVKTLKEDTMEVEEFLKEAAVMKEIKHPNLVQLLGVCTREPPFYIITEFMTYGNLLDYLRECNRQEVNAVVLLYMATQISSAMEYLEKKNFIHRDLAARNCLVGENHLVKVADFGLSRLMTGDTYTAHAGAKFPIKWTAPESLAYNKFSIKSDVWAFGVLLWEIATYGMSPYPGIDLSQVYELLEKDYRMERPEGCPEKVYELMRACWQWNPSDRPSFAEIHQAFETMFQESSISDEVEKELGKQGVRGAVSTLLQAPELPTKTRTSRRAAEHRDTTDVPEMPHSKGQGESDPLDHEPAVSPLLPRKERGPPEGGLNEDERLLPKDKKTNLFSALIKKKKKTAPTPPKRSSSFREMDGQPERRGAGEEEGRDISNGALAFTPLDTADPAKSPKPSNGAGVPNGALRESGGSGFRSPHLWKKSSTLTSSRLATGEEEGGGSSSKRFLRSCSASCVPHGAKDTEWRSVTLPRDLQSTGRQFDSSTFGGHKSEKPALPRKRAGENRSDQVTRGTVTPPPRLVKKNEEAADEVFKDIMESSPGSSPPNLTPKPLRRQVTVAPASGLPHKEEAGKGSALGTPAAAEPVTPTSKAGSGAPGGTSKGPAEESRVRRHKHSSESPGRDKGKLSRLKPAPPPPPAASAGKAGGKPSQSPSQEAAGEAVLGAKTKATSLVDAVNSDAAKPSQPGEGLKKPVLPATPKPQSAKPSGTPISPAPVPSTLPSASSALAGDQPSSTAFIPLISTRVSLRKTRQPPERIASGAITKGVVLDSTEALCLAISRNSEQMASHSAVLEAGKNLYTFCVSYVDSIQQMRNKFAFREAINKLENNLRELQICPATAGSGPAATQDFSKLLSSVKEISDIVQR
Chain of UniProt P42336 (whole entry, unmodified, looked up): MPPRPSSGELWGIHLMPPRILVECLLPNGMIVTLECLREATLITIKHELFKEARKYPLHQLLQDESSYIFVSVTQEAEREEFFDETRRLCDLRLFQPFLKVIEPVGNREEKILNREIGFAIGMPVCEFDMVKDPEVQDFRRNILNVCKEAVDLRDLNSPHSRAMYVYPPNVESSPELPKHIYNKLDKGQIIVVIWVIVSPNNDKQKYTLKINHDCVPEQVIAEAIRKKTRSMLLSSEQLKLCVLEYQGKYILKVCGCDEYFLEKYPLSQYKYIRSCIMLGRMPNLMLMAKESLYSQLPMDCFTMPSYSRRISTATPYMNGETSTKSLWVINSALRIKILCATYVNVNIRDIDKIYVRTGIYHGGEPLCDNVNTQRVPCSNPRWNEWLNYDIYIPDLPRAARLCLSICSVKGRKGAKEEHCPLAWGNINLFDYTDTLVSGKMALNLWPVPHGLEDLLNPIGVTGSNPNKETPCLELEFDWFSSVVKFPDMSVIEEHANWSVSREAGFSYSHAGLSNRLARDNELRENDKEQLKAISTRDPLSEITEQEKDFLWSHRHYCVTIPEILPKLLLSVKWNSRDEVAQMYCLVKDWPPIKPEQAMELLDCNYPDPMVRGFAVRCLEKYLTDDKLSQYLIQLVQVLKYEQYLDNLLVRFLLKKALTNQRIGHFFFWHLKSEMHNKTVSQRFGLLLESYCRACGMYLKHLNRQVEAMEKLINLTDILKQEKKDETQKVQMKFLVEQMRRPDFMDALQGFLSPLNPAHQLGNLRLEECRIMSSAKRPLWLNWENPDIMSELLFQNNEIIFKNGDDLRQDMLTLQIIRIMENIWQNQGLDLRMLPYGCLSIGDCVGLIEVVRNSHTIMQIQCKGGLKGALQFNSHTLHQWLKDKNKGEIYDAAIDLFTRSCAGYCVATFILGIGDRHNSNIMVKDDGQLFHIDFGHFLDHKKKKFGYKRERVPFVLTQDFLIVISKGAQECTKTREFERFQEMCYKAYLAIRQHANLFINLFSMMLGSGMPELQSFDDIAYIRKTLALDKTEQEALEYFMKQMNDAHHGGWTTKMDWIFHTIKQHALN
Chain of UniProt Q9C098 (whole entry, looked up): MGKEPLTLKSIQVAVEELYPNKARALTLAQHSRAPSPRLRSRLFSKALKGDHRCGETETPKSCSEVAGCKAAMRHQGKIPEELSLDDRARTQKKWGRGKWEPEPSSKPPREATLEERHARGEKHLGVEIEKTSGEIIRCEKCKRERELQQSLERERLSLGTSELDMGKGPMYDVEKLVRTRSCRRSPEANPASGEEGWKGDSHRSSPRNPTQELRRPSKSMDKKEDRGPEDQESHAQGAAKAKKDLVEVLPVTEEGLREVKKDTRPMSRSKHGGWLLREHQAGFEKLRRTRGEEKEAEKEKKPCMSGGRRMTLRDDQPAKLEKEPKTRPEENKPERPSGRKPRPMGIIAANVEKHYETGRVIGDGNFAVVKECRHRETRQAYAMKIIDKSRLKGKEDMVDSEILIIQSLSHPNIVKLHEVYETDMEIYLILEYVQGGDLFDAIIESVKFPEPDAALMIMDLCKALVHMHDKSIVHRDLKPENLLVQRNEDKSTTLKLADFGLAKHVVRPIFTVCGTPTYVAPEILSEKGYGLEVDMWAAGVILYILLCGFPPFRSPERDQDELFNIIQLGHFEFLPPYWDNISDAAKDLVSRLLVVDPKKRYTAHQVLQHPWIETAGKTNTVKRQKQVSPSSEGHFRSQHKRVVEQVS
Chain of UniProt Q13557 (whole entry, looked up): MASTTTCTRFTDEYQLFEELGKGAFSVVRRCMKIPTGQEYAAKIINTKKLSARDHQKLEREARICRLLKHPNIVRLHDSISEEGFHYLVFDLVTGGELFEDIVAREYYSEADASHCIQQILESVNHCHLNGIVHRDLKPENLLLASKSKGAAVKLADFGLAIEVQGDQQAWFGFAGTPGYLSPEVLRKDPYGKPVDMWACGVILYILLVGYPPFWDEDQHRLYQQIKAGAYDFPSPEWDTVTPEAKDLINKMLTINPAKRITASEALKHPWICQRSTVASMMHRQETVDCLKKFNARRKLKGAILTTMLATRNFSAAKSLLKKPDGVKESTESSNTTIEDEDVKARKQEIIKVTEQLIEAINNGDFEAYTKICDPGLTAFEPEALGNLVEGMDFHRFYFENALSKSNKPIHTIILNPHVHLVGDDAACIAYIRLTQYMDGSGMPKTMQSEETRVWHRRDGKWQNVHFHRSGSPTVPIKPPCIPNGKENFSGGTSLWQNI
Chain of UniProt O00750 (whole entry, looked up): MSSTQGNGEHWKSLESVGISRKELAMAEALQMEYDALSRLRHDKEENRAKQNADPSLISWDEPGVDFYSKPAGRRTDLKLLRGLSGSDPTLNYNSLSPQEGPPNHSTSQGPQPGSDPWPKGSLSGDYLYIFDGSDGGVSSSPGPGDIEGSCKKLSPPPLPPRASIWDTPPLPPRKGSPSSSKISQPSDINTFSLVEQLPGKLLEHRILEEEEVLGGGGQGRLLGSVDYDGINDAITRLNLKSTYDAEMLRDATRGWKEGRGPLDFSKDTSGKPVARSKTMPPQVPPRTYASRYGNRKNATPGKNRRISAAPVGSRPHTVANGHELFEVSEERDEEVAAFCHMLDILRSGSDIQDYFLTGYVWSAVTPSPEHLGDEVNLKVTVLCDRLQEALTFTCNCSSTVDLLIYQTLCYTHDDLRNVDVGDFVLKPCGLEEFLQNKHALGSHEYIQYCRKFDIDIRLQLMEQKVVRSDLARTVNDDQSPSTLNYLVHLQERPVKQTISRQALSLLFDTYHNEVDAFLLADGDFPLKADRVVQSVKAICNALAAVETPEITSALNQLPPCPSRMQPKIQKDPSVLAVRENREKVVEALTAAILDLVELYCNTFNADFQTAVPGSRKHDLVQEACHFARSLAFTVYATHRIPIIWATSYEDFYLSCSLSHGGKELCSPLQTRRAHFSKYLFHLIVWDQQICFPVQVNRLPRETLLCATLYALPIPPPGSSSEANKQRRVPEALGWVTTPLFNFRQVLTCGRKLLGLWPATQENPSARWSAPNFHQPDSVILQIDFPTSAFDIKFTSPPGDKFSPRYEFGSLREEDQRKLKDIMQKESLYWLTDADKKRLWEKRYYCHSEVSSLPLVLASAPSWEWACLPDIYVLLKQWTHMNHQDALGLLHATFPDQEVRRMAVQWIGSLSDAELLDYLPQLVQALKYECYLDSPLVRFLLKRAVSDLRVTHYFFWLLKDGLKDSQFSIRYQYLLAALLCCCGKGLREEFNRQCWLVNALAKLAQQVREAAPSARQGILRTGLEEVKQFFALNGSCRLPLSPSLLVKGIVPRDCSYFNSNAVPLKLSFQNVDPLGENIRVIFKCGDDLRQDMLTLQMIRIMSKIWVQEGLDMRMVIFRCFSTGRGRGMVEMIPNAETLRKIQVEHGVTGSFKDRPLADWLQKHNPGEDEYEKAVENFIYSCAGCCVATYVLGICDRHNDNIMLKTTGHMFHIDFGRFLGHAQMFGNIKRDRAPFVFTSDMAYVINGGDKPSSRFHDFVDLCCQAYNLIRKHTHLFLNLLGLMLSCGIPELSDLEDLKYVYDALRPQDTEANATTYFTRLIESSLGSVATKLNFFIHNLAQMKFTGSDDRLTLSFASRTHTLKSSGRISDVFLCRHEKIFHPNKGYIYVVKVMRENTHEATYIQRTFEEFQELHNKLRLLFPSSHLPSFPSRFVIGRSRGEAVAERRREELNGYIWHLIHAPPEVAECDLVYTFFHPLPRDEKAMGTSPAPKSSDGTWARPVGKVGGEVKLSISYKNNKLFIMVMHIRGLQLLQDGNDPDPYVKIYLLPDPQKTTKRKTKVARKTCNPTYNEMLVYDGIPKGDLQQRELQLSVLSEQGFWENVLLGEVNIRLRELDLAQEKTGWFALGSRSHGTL

Series 1
SMILES: Cc1ccc(NC(=O)c2ccnc(C(F)(F)F)c2)cc1-c1cc(OCCO)nc(N2CCOCC2)c1
Technique: competitive binding panel
Concentration: 1 µM
Relative to: vehicle
Measurement: remaining binding
Calcium/calmodulin-dependent protein kinase type II subunit delta (CAMK2D, Homo sapiens, UniProt Q13557): 92%
Phosphatidylinositol 4-phosphate 3-kinase C2 domain-containing subunit beta (PIK3C2B, Homo sapiens, UniProt O00750): 100%
Phosphatidylinositol 4,5-bisphosphate 3-kinase catalytic subunit alpha isoform (PIK3CA, Homo sapiens, UniProt P42336, H1047L): 98%
Serine/threonine-protein kinase DCLK3 (DCLK3, Homo sapiens, UniProt Q9C098); measured: DCAMKL3: 100%
Receptor-interacting serine/threonine-protein kinase 1 (RIPK1, Homo sapiens, UniProt Q13546): 100%

Series 2
Host: human
Matrix: microsomes or S9
Concentration: 2 µM
Time: 0.5 h
Measurement: remaining compound
Cc1nc(N2CCN(C)CC2)nc2c1C(=O)CC(c1ccco1)C2 (stereo not shown): 45%
O=c1[nH]ncc(Nc2ccc3[nH]ncc3c2)c1Br: 56.1%
CCOc1ccc(C(=O)N2CCc3cc(OC)c(OC)cc3C2CC2CC3c4cc(OC)c(OC)cc4CCN3CC2CC)cc1 (stereo not shown): 5.3%
COc1ccc(CNc2ccc(C(=O)N3CCN(Cc4ccc(OC)c(OC)c4OC)CC3)cc2S(=O)(=O)Nc2cccc(OC)c2)cc1: 22.7%
CCN(CCCNC(=O)Nc1cc(Br)cn(C)c1=O)S(C)(=O)=O: 76%
CNC(=O)[C@@H]1C[C@H](Oc2ccccc2)CN1C1CCN(C(=O)NC(C)C)CC1: 87.7%

Series 3
Organism: Plasmodium berghei
Action: inhibitor
Cells: Huh-7
Strain: liver stage
Concentration: 10 µM
Time: 24 h
Relative to: untreated control
Measurement: infection rate
CC(C(=O)O)c1cccc(Oc2ccccc2)c1 (stereo not shown): 111%
COC(=O)Nc1nc2cc(Sc3ccccc3)ccc2[nH]1: 98.3%
N=C(N)N/N=C/c1c(Cl)cccc1Cl: 74.5%
NCCc1c[nH]cn1: 95.2%
Cc1c(OCC(F)(F)F)ccnc1C[S+]([O-])c1nc2ccccc2[nH]1 (stereo not shown): 60.6%
CC12CC3CC(C)(C1)CC(N)(C3)C2: 101%
Cc1ncc([N+](=O)[O-])n1CCO: 103%

Further values, each from its own experiment
Cn1cncc1[C@](O)(COc1ccc(C#N)cc1-c1ccc(OC(F)(F)F)cc1)c1ccc(C#N)cc1  remaining binding (Tyrosine-protein kinase ABL1, phosphorylated (ABL1, Homo sapiens, UniProt P00519, F317I); binding; 1 µM): 100%

For quick reference, copied from above (further values, each from its own experiment):
Cn1cncc1[C@](O)(COc1ccc(C#N)cc1-c1ccc(OC(F)(F)F)cc1)c1ccc(C#N)cc1  remaining binding (Tyrosine-protein kinase ABL1, phosphorylated (ABL1, Homo sapiens, UniProt P00519, F317I); binding; 1 µM): 100%
